Published values collected from several papers.
Compare with care: the assays were run in different laboratories. ± marks the error that the study gave.

For `CC(C)[C@H](NC(=O)[C@@H]1CCCN1C(=O)[C@H](CCCNC(=N)N)NC(=O)[C@H](CS)NC(=O)[C@H](Cc1c[nH]c2ccccc12)NC(=O)[C@H](CCCNC(=N)N)NC(=O)[C@@H](Cc1ccccc1)NC(=O)[C@H](Cc1c[nH]cn1)NC(=O)[C@H](CCC(=O)O)NC(=O)[C@H](CS)NC(=O)[C@H](CS)NC(=O)COCCOCCNC(=O)[C@@H]1CC(=O)N[C@@H](CCCNC(=N)N)C(=O)NCC(=O)N[C@@H](CC(=O)O)C(=O)N[C@H](Cc2ccc(O)cc2)C(=O)N1)C(N)=O` [technetium-99m labelled], the tissue uptake was 1.66 ± 0.37 %ID (nude mice M21 xenograft, intestines; intravenous, 0.037 MBq, 2 h).
`NC12CNCCNCC(NCc3ccc(CNC(=O)CCCC(=O)NCc4ccc(-c5nncnn5)cc4)cc3)(CNCCNC1)CNCCNC2.[64Cu+2]` has a tissue uptake of 1.6 ± 0.12 %ID/g (athymic nude mice SW1222 xenograft, liver; 1 h post injection, 24 h accumulation interval, together with: huA33-TCO pretargeting).
The tissue uptake of `CCCC[C@H](NC(=O)CNC(=O)CNC(=O)CN1CCN(CC(=O)O)CCN(CC(=O)O)CCN(CC(=O)O)CC1)C(=O)N[C@H]1CC(=O)NCCCC[C@@H](C(N)=O)NC(=O)[C@H](Cc2c[nH]c3ccccc23)NC(=O)[C@H](CCCNC(=N)N)NC(=O)[C@@H](Cc2ccccc2)NC(=O)[C@H](Cc2c[nH]cn2)NC1=O` [lead-203 labelled] is reported as 1.68 ± 0.96 %ID (normal C57 mice, intestine; intravenous, 0.056 MBq, 4 h).
`CC(F)C(=O)NCCOCCOCCOCC(=O)N[C@@H](CCC(=O)NCCCC[C@@H]1NC(=O)[C@@H](Cc2ccc(O)cc2)NC(=O)[C@H](CC(=O)O)NC(=O)CNC(=O)[C@H](CCCNC(=N)N)NC1=O)C(=O)NCCCC[C@@H]1NC(=O)[C@@H](Cc2ccc(O)cc2)NC(=O)[C@H](CC(=O)O)NC(=O)CNC(=O)[C@H](CCCNC(=N)N)NC1=O` (stereo partly drawn) [fluorine-18 labelled] gave a tissue uptake of 0.63 ± 0.09 %ID/g (small-animal PET; female athymic nude mice, U-87 MG xenograft, liver; intravenous, 3.7 MBq, 60 min).
`CCCC[C@H](NC(=O)CNC(=O)CNC(=O)CN1CCN(CC(=O)O)CCN(CC(=O)O)CC1)C(=O)N[C@H]1CC(=O)NCCCC[C@@H](C(N)=O)NC(=O)[C@H](Cc2c[nH]c3ccccc23)NC(=O)[C@H](CCCNC(=N)N)NC(=O)[C@@H](Cc2ccccc2)NC(=O)[C@H](Cc2c[nH]cn2)NC1=O` [gallium-67 labelled] gave a tissue uptake of 1.62 ± 0.63 %ID/g (female C57 mice, B16/F1 melanoma, stomach; intravenous, 0.037 MBq, 2 h).
With `CC(C)[C@H](NC(=O)[C@@H]1CCCN1C(=O)[C@H](CCCNC(=N)N)NC(=O)[C@H](CS)NC(=O)[C@H](Cc1c[nH]c2ccccc12)NC(=O)[C@H](CCCNC(=N)N)NC(=O)[C@@H](Cc1ccccc1)NC(=O)[C@H](Cc1c[nH]cn1)NC(=O)[C@H](CCC(=O)O)NC(=O)[C@H](CS)NC(=O)[C@H](CS)NC(=O)[C@@H]1CC(=O)N[C@@H](CCCNC(=N)N)C(=O)NCC(=O)N[C@@H](CC(=O)O)C(=O)N[C@H](Cc2ccc(O)cc2)C(=O)N1)C(N)=O` [technetium-99m labelled] the tissue uptake was 0.05 ± 0.02 %ID/g (C57 mice B16/F1 melanoma female, brain; iv, 2 h, together with: NDP-MSH 10 µg co-injected).
With `N=C(N)NCCC[C@@H]1NC(=O)[C@H](CCCCNC(=O)CON=C[C@H](F)[C@@H](O)[C@H](O)[C@H](O)CO)NC(=O)[C@@H](Cc2ccc(O)cc2)NC(=O)[C@H](CC(=O)O)NC(=O)CNC1=O` [fluorine-18 labelled] the tissue uptake was 0.13 ± 0.06 %ID/g (nude mice U-87 MG tumour, muscle; intravenous, 2 h).
For `CC(F)C(=O)NC[C@@H]1O[C@H](C(=O)NCCCC[C@@H]2NC(=O)[C@@H](Cc3ccc(O)cc3)NC(=O)[C@H](CC(=O)O)NC(=O)CNC(=O)[C@H](CCCNC(=N)N)NC2=O)[C@H](O)[C@H](O)[C@H]1O` (stereo partly drawn) [fluorine-18 labelled], the tissue uptake was 0.82 ± 0.13 %ID/g (small-animal PET; female athymic nude mice, U-87 MG xenograft, kidney; intravenous, 3.7 MBq, 120 min).
With `O=C([O-])c1cccc(CN(CCN(Cc2cn(Cc3ccccc3)nn2)Cc2cccc(C(=O)[O-])n2)Cc2cn(Cc3ccccc3)nn2)n1.[64Cu+2]` the tissue uptake was 2.38 %ID/g (healthy athymic nude mice, skin; intravenous, 4 h).

Excerpt of the above:
With `O=C([O-])c1cccc(CN(CCN(Cc2cn(Cc3ccccc3)nn2)Cc2cccc(C(=O)[O-])n2)Cc2cn(Cc3ccccc3)nn2)n1.[64Cu+2]` the tissue uptake was 2.38 %ID/g (healthy athymic nude mice, skin; intravenous, 4 h).
